Measurements gathered from unrelated publications.
Values joined by “and” are separate records of one study, mostly repeats; a detail may differ. ± marks the error that the study gave.

Structure (SMILES) | test | system | conditions | tissue uptake
CCCC[C@H](NC(=O)CNC(=O)CNC(=O)[C@H](CCCCNC(=O)[C@H](CCN)NC(=O)C(C)c1ccc(CC(C)C)cc1)NC(=O)CN1CCN(CC(=O)O)CCN(CC(=O)O)CCN(CC(=O)O)CC1)C(=O)N[C@H]1CC(=O)NCCCC[C@@H](C(N)=O)NC(=O)[C@H](Cc2c[nH]c3ccccc23)NC(=O)[C@H](CCCNC(=N)N)NC(=O)[C@@H](Cc2ccccc2)NC(=O)[C@H](Cc2c[nH]cn2)NC1=O (stereo partly drawn) [lutetium-177 labelled] | – | C57 mice, tumour-bearing, kidneys | 2 h | 65.6 ± 0.94 %ID/g
COc1ccc(Nc2nc(Nc3ccc(OCCOCC[18F])cc3)ncc2Br)cc1 | – | ICR mice, S180 tumour, intestine | intravenous, 370 kBq, 15 min | 2.66 ± 0.09 %ID
O=C(NCC1OC2CCC=CCCC2O1)c1ccc([18F])nc1 (stereo not drawn) | – | healthy female BALB/c nude mice, heart | intravenous, 7.4 MBq per mouse, 2 min | 4.7 ± 0.7 %ID/g
COc1ccc2c(c1)C(C)(C)C(/C=C/C1=C(Oc3ccc(C(=O)NCCCCOc4cc(CN(Cc5ccccn5)Cc5ccccn5)cc(CN(Cc5ccccn5)Cc5ccccn5)c4)cc3)C(=C/C=C3/N(CCCCS(=O)(=O)[O-])c4ccc(OC)cc4C3(C)C)CCC1)=[N+]2CCCCS(=O)(=O)[O-].O=[N+]([O-])[O-].O=[N+]([O-])[O-].[99Tc+].[C-]#[O+].[C-]#[O+].[C-]#[O+].[Zn+2] | – | healthy BALB/c mice, heart | 12 h | 1.43 %ID/g and 1.18 %ID/g and 1.28 %ID/g and 1.42 %ID/g
O=C(O)CCCOc1ccc([18F])cc1-c1cc(-c2ccccc2C(F)(F)F)n(-c2ccccc2)n1 | – | mice, bladder and urine | intravenous, 30 min | 0.08 ± 0.04 %ID/g
COc1ccc(Nc2nc(Nc3ccc(OCCOCCOCC[18F])cc3)ncc2Br)cc1 | – | ICR mice, S180 tumour, intestine | intravenous, 370 kBq, 15 min | 2.24 ± 0.12 %ID
Cc1cc(C)n(CCN(CCN)CCCCCCNC(=O)[C@@H](N)Cc2c[nH]cn2)n1.[99Tc+].[C-]#[O+].[C-]#[O+].[C-]#[O+] | – | BALB/c nude mice, A549 xenograft, stomach | intravenous, 4 h | 0.78 ± 0.25 %IA/g
CC(C)C[C@H](NC(=O)[C@@H](CCCCNC(=O)[C@@H](Cc1ccccc1)NC(=O)CCCCCCCNC(=O)CN1CCN(CC(=O)O)CCN(CC(=O)O)CCN(CC(=O)O)CC1)NC(=O)[C@H](Cc1ccc(O)cc1)NC(=O)[C@H](CO)NC(=O)[C@H](Cc1c[nH]c2ccccc12)NC(=O)[C@H](Cc1c[nH]cn1)NC(=O)[C@@H]1CCC(=O)N1)C(=O)N[C@@H](CCCNC(=N)N)C(=O)N1CCC[C@H]1C(=O)NCC(N)=O [indium-111 labelled] | biodistribution | male athymic nude mice, DU-145 prostate cancer xenograft, muscle | intravenous, 0.037 MBq, 1 h post-injection | 0.27 ± 0.08 %ID/g
O=C(NCC1OC2CCC=CCCC2O1)c1ccc(COCCOCCOCC[18F])cc1 (stereo not drawn) | – | healthy female BALB/c nude mice, stomach | intravenous, 7.4 MBq per mouse, 120 min | 1.6 ± 0.2 %ID/g
N#C[C@@H]1CCCN1C(=O)CNC(=O)c1ccnc2ccc(OCCCN3CCN(C(=O)CCc4ccc5c(c4)CN4CCN(Cc6cc(CCC(=O)O)ccc6O)CC(=O)[O][Al-]([18F])([O]C(=O)C4)[O]5)CC3)cc12 (stereo partly drawn) | – | BALB/c nude mice, U-87 MG tumour, gallbladder | 120 min post-injection | 14.7 ± 8.32 %ID/g
CCCC[C@H](NC(=O)CCCCCCCNC(=O)CN1CCN(CC(=O)O)CCN(CC(=O)O)CC1)C(=O)N[C@H]1CC(=O)NCCCC[C@@H](C(N)=O)NC(=O)[C@H](Cc2c[nH]c3ccccc23)NC(=O)[C@H](CCCNC(=N)N)NC(=O)[C@@H](Cc2ccccc2)NC(=O)[C@H](Cc2c[nH]cn2)NC1=O [fluorine-18 labelled] | – | C57 mice B16-F10 melanoma, bone | intravenous, 0.37 MBq, 0.5 h | 3.7 ± 0.92 %ID/g
N#C[C@@H]1CCCN1C(=O)CNC(=O)c1ccnc2ccc(OCCCN3CCN(C(=O)CCc4ccc(O)c(CN5CCN6CC(=O)[O][Al-]([18F])([O]C(=O)C5)[O]c5ccc(CCC(=O)N7CCN(CCCOc8ccc9nccc(C(=O)NCC(=O)N%10CCC[C@H]%10C#N)c9c8)CC7)cc5C6)c4)CC3)cc12 (stereo partly drawn) | – | BALB/c nude mice, U-87 MG xenograft, brain | 1 h, blocking, together with: DOTA-FAPI-04 40 nmol/mouse co-injected | 0.17 ± 0.02 %ID/g
O=C([O-])CN1CCN(CC(=O)[O-])CCN(CC(=O)NC[C@H]2CC[C@H](C(=O)N[C@H](Cc3cnc4ccccc4c3)C(=O)NCCCC[C@H](NC(=O)N[C@@H](CCC(=O)O)C(=O)O)C(=O)O)CC2)CCN(CC(=O)[O-])CC1.[64Cu+2] | ex vivo gamma counting | 22Rv1 tumour-bearing mice, lung | intravenous, 0.74 MBq, 1 h post-injection | 7.33 %ID/g
CCCC[C@H](NC(=O)CNC(=O)CNC(=O)[C@H](CCCCNC(=O)[C@H](CC(=O)O)NC(=O)C(C)c1ccc(CC(C)C)cc1)NC(=O)CN1CCN(CC(=O)O)CCN(CC(=O)O)CCN(CC(=O)O)CC1)C(=O)N[C@H]1CC(=O)NCCCC[C@@H](C(N)=O)NC(=O)[C@H](Cc2c[nH]c3ccccc23)NC(=O)[C@H](CCCNC(=N)N)NC(=O)[C@@H](Cc2ccccc2)NC(=O)[C@H](Cc2c[nH]cn2)NC1=O (stereo partly drawn) [lutetium-177 labelled] | – | C57 mice, tumour-bearing, kidneys | 2 h | 11.3 ± 1.97 %ID/g
CCCC[C@H](NC(=O)COCCOCCNC(=O)CN1CCN(CC(=O)O)CCN(CC(=O)O)CC1)C(=O)N[C@H]1CC(=O)NCCCC[C@@H](C(N)=O)NC(=O)[C@H](Cc2c[nH]c3ccccc23)NC(=O)[C@H](CCCNC(=N)N)NC(=O)[C@@H](Cc2ccccc2)NC(=O)[C@H](Cc2c[nH]cn2)NC1=O [fluorine-18 labelled] | – | C57 mice, B16/F10 melanoma, kidneys | intravenous, 1 h, together with: NDP-MSH 10 µg | 6.96 ± 1.19 %ID/g

A few entries again:
Structure (SMILES) | test | system | conditions | tissue uptake
CCCC[C@H](NC(=O)CNC(=O)CNC(=O)[C@H](CCCCNC(=O)[C@H](CCN)NC(=O)C(C)c1ccc(CC(C)C)cc1)NC(=O)CN1CCN(CC(=O)O)CCN(CC(=O)O)CCN(CC(=O)O)CC1)C(=O)N[C@H]1CC(=O)NCCCC[C@@H](C(N)=O)NC(=O)[C@H](Cc2c[nH]c3ccccc23)NC(=O)[C@H](CCCNC(=N)N)NC(=O)[C@@H](Cc2ccccc2)NC(=O)[C@H](Cc2c[nH]cn2)NC1=O (stereo partly drawn) [lutetium-177 labelled] | – | C57 mice, tumour-bearing, kidneys | 2 h | 65.6 ± 0.94 %ID/g
